Experimental data collected from several papers.
Protocols differ between the studies behind these lines. Several values in a cell are separate wells, animals, samples, runs or records. ± gives the spread as reported.
POLB I260M: DNA polymerase beta (POLB, Homo sapiens, UniProt P06746, I260M)
POLB: DNA polymerase beta (POLB, Homo sapiens, UniProt P06746)
SCTR: Secretin receptor (SCTR, Homo sapiens, UniProt P47872)

Under transcriptional activity, `C=CCC1C(=O)C=C(OC)C2(OC)C(C)C(c3ccc4c(c3)OCO4)OC12` (single isomer, unassigned; (-)) is recorded as “inhibited” (Bile acid receptor (NR1H4, Homo sapiens, UniProt Q96RI1, H461F); reporter gene; HEK293T; concentration not given; relative to: wild type).
For `CNc1ccccc1C(=O)O[C@H]1C[C@H](n2cnc3c(N)ncnc32)O[C@@H]1COP(=O)(O)OP(=O)(O)O`, “association rate constant” read 5.55e+06 ± 230000 M⁻¹ s⁻¹ (Unconventional myosin-Va (Gallus gallus, UniProt Q02440, D297C/G292C/I296C/S293C/V295G); stopped-flow FRET; 25 °C, together with: MgCl2 2 mM).
`Nc1nc2c(ncn2C2CC(O)C(COP(=O)(O)OP(=O)(O)C(Br)P(=O)(O)O)O2)c(=O)[nH]1` (mixture of isomers) gave a kpol of 0.004 ± 0.0007 s⁻¹ (POLB I260M; nucleotide incorporation rate, substrate, single-turnover kinetics; single-nucleotide gapped DNA; 37 °C, I260M, misincorporation, together with: dGTP opposite template A).
The binding potential of `CC1(C)C(/C=C/C2=C(Oc3ccc(CCC(=O)N[C@@H](CSC4CC(=O)N(CCNC(=O)CN5CCN(CC(=O)O)CCN(CC(=O)O)CCN(CC(=O)O)CC5)C4=O)C(=O)NCCCC[C@@H]4NC(=O)[C@@H](Cc5ccc(O)cc5)NC(=O)[C@H](CC(=O)O)NC(=O)CNC(=O)[C@H](CCCNC(=N)N)NC4=O)cc3)C(=C/C=C3/N(CCC[N+](C)(C)C)c4ccc(S(=O)(=O)O)cc4C3(C)C)/CCC2)=[N+](CCC[N+](C)(C)C)c2ccc(S(=O)(=O)O)cc21` (some centres unmarked) is reported as 1.51 ± 0.113 (integrin αvβ3; dynamic optical imaging, Logan; female athymic nude mouse, MDA-MB-435 xenograft; dose not given, 60 min, unit not given; relative to: muscle).
`CC(P(=O)(O)O)P(=O)(O)OP(=O)(O)OCC1OC(n2cnc3c(=O)[nH]c(N)nc32)CC1O` (mixture of isomers) gave a kpol/Kd of 2.5 ± 1.2 M⁻¹ s⁻¹ (POLB I260M; nucleotide incorporation, substrate, single turnover kinetics; dG misincorporation opposite A).
For `CC[C@H](C)[C@@H]1NC(=O)[C@H](Cc2ccccc2)NC(=O)[C@H](CCC(=O)O)NC(=O)[C@H](CCCNC(=N)N)NC(=O)CNC(=O)[C@@H](NC(=O)[C@H](CC(C)C)NC(=O)[C@H](CCCNC(=N)N)NC(=O)[C@@H](NC(=O)CNC(=O)[C@H](Cc2ccc(O)cc2)NC(=O)[C@@H]2CCCN2C(=O)[C@H](C)NC(=O)[C@H](C)NC(=O)[C@@H](N)CCCNC(=N)N)C(C)C)CSSC[C@@H]2NC(=O)[C@@H](NC(=O)[C@H](CO)NC(=O)[C@H](CO)NC(=O)[C@H](CO)NC(=O)[C@H](CC(C)C)NC(=O)CNC(=O)[C@H](C)NC(=O)[C@H](CC(C)C)NC(=O)[C@@H](NC(=O)[C@@H](N)CC(=O)O)C(C)C)CSSC[C@H](NC(=O)CNC(=O)[C@H](Cc3c[nH]c4ccccc34)NC(=O)[C@H](CCCCN)NC2=O)C(=O)N[C@@H](CO)C(=O)N[C@@H](CCCCN)C(=O)N[C@@H](CO)C(=O)N[C@@H](CCC(=O)O)C(=O)N[C@@H]([C@@H](C)CC)C(=O)N[C@@H](CO)C(=O)N[C@@H](CO)C(=O)N[C@@H](CC(C)C)C(=O)N[C@H](C(=O)O)CSSC[C@@H](C(=O)NCC(=O)NCC(=O)N[C@@H](CO)C(=O)N[C@@H](CCCNC(=N)N)C(=O)N[C@@H](Cc2c[nH]c3ccccc23)C(=O)O)NC(=O)[C@H]([C@@H](C)O)NC(=O)[C@H](Cc2ccccc2)NC(=O)[C@H]([C@@H](C)CC)NC(=O)[C@H](C(C)C)NC(=O)[C@H](C)NC(=O)[C@H](CCCNC(=N)N)NC1=O`, the potency reduction was 58 fold (RXFP4 (Homo sapiens, UniProt Q8TDU9, L192A); cAMP response, agonist; concentration not given, L192A mutant; relative to: wild type).
The Gmax of `CC(C)(C)CCN1C[C@@H]2[C@@H](CNC(=O)c3cc(Cl)cc(Cl)c3)[C@@H]2C1.Cl` is reported as 0.037 ± 0.0066 nS/pF (Voltage-dependent L-type calcium channel subunit alpha-1F (Homo sapiens, UniProt O60840); calcium current, whole-cell patch clamp; HEK-293T cells; 50 nM, holding potential -50 mV, together with: β2 and α2δ subunits).
For `O=C(NCCC#Cc1cc(Nc2nccc(-c3ccn([C@H](CO)c4ccc(Cl)c(F)c4)c(=O)c3)n2)ccn1)OC1CC/C=C/CCC1` (some centres unmarked), the dissociation half-life was 4 min (MAPK1 (Homo sapiens, UniProt P28482); binding, SPR; 25 °C).
`CCC1(CC)C(=O)N(c2cccc(CN3CCN(Cc4ccc5ccc6cccc7ccc4c5c67)CC3)c2)C1=O` — result for Ki: “inactive” (Dipeptidyl peptidase 8 (Homo sapiens, UniProt Q6V1X1); inhibitor, Morrison equation).
Under “lowest degrading concentration”, `Cc1ncsc1-c1ccc([C@H](C)NC(=O)[C@@H]2C[C@@H](O)CN2C(=O)[C@@H](NC(=O)[C@H]2C[C@H](C(=O)N3CCC(c4cc(Nc5cc(C#N)ccn5)nc(N5CCC(F)(F)C5)c4)CC3)C2)C(C)(C)C)cc1` is recorded as 250 nM (MAP3K13 (Homo sapiens, UniProt O43283); protein degradation, degrader, Western blot; CAL-33, dox-induced MAP3K13 overexpression; 24 h).
`Clc1ccc2c(c1)c1cc(Cl)ccc1n2CCc1nnn[nH]1` has a Hill coefficient of 1.2 ± 0.2 (Kcnk2 (Mus musculus, UniProt P97438); ion current, two-electrode voltage clamp; Xenopus oocytes).
For `Cc1cc(=O)oc2cc(NC(=O)CCCCCCCC(=O)NO)ccc12`, “temperature where ΔG equals ΔH” read 377 K (HDAC8 (Homo sapiens, UniProt Q9BY41); temperature-dependent ITC).
For `Nc1nc2c(ncn2[C@H]2C[C@H](O)[C@@H](COP(=O)(O)OP(=O)(O)[C@H](Cl)P(=O)(O)O)O2)c(=O)[nH]1`, the kpol was 7.6 s⁻¹ (POLB; substrate, quench-flow kinetics; pH 8.0, 37 °C, incorporation opposite C in gapped DNA).
The Vmax of `O=C(Nc1ccc(C(=O)Nc2ccc(C(=O)Nc3ccc(S(=O)(=O)O)c4cc(S(=O)(=O)O)cc(S(=O)(=O)O)c34)cc2)cc1)Nc1ccc(C(=O)Nc2ccc(C(=O)Nc3ccc(S(=O)(=O)O)c4cc(S(=O)(=O)O)cc(S(=O)(=O)O)c34)cc2)cc1` is reported as 18.3 ± 0.77 mAU/min (Neutrophil elastase (ELANE, Homo sapiens, UniProt P08246); substrate S-1384 hydrolysis; pH 7.4, 37 °C, enzyme 400 nM).
For `COC(=O)CN1CCCc2cc3cc(C(=O)NC(Cc4ccc(C)cc4)C(=O)NCC=CS(=O)(=O)c4ccccc4)c(=O)oc3cc21` (centres unmarked), the remaining activity was 52% (Procathepsin L (CTSL, Homo sapiens, UniProt P07711); enzyme activity, inhibitor; 5 µM, 60 min, together with: Z-Phe-Arg-pNA; relative to: uninhibited control).
For `COc1ccc(-c2cc(C(F)(F)F)nc(NCc3cccnc3)n2)cc1OC`, the Emax was 27% (SCTR; cAMP, agonist).
For `CC(C)CCC[C@@H](C)[C@H]1CC[C@H]2[C@@H]3CC=C4C[C@@H](OS(=O)(=O)O)CC[C@]4(C)[C@H]3CC[C@]12C`, the maximal inhibition was 71.3 ± 4.2% (Prothrombin (F2, Homo sapiens, UniProt P00734); enzyme activity, inhibitor, chromogenic substrate; 10 min, pH 7.4, 25 °C, 0.02% Tween 80, together with: Spectrozyme TH).
For `O=P(O)(O)O[C@@H]1[C@@H](O)[C@H](O)[C@H](O)[C@H](O)[C@H]1OP(=O)(O)O`, the Hill coefficient was 0.8 ± 0.1 (Inositol 1,4,5-trisphosphate-gated calcium channel ITPR1, N-terminal region (Itpr1, Rattus norvegicus, UniProt P29994, del318-332); [3H]IP3 competition binding; N-terminal fragment).
For `N=C(N)NC(=N)Nc1cccc(Cl)c1`, “relative maximal response” read 2.6 (Serotonin 3 (5-HT3) receptor (Homo sapiens, UniProt O95264+P46098); ion current, two-electrode voltage clamp; Xenopus oocytes; relative to: 5-HT).
The kinact/KI of `COc1ccc(-c2cc(C(F)(F)F)nc(S(=O)(=O)NCC(=O)Nc3ccc(C)cc3)n2)cc1` is reported as 562 M⁻¹ s⁻¹ (WRN (Homo sapiens, UniProt Q14191); enzyme activity, inhibitor).
For `COc1ccc(CNc2nc3c(c(=O)[nH]2)[n+](C)cn3C2OC(COP(=O)(O)OP(=O)([O-])OP(=O)(O)OCC3OC(n4cnc5c(=O)[nH]c(N)nc54)C(O)C3O)C(O)C2O)cc1` (centres unmarked), the melting temperature was 50.4 °C (Eif4e (Mus musculus, UniProt P63073); differential scanning fluorimetry; 100 µM).
For `Cc1cn(C2CC(O)C(COP(=O)(O)OP(=O)(O)C(Br)P(=O)(O)O)O2)c(=O)[nH]c1=O` (mixture of isomers), the kpol/Kd was 290000 ± 60000 M⁻¹ s⁻¹ (POLB; substrate, single turnover kinetics).
`NCCCCC(NC(=O)OCc1ccccc1)C(=O)C=O` (centres unmarked) — result for “bound inhibitor fraction”: about 94% (Serine protease 1 (PRSS1, Bos taurus, UniProt P00760); binding; concentration not given, pH 7.2, together with: Nα-benzoyl-L-arginine p-nitroanilide).
`COc1ccc(CCNc2nc(-c3ccccc3)cc(C(F)(F)F)n2)cc1OC` gave an Emax of 113 ± 1.5% (SCTR; increase of tracer binding, TR-FRET; HEK293 membranes; together with: Fluo-Sec 6 nM).
`O=C(O)C1CC(OS(=O)(=O)c2ccc(-c3ccc(F)cc3)cc2)CN1` (centres unmarked) gave an outward current of 8 ± 2 pA (SLC1A5 (Homo sapiens, UniProt Q15758); HEK293; 100 µM).
`COc1ccc(-c2cc(C(F)(F)F)nc(SCC(=O)N(C)c3ccccc3)n2)cc1OC` gave an Emax of 160 ± 24% (SCTR; increase of tracer binding, TR-FRET; HEK293 membranes; together with: Fluo-Sec 6 nM).
`Oc1c(C(Nc2nc3ccccc3s2)c2cccc(OCc3ccccc3)c2)ccc2cccnc12` (centres unmarked) has a Hill slope of 1.14 ± 0.07 (Genome polyprotein, NS2B-NS3 protease (Dengue virus type 2, UniProt P14340); enzyme activity, inhibitor; no CHAPS, together with: Bz-Nle-Lys-Arg-Arg-AMC substrate).
`COc1ccc(-c2cc(C(F)(F)F)nc(SCC(=O)N(C)c3ccccc3)n2)cc1`: “cooperativity factor beta” 30 (SCTR; efficacy cooperativity, allosteric modulator; cells overexpressing SCTR; together with: secretin(3-27)).
For `O=C(c1ccc(-c2ccc(Cl)cc2)o1)N1CCOc2cc(Cl)ccc21`, the activation was 1.74 fold and > 1.5 fold (Nuclear receptor subfamily 4 group A member 2, ligand binding domain (Homo sapiens, UniProt P43354); reporter gene, agonist, Gal4-Nurr1 hybrid reporter; HEK-293T; 3 µM, crude library product; relative to: vehicle (0.1% DMSO)).

For quick reference, copied from above:
`Nc1nc2c(ncn2C2CC(O)C(COP(=O)(O)OP(=O)(O)C(Br)P(=O)(O)O)O2)c(=O)[nH]1` (mixture of isomers) gave a kpol of 0.004 ± 0.0007 s⁻¹ (POLB I260M; nucleotide incorporation rate, substrate, single-turnover kinetics; single-nucleotide gapped DNA; 37 °C, I260M, misincorporation, together with: dGTP opposite template A).
The binding potential of `CC1(C)C(/C=C/C2=C(Oc3ccc(CCC(=O)N[C@@H](CSC4CC(=O)N(CCNC(=O)CN5CCN(CC(=O)O)CCN(CC(=O)O)CCN(CC(=O)O)CC5)C4=O)C(=O)NCCCC[C@@H]4NC(=O)[C@@H](Cc5ccc(O)cc5)NC(=O)[C@H](CC(=O)O)NC(=O)CNC(=O)[C@H](CCCNC(=N)N)NC4=O)cc3)C(=C/C=C3/N(CCC[N+](C)(C)C)c4ccc(S(=O)(=O)O)cc4C3(C)C)/CCC2)=[N+](CCC[N+](C)(C)C)c2ccc(S(=O)(=O)O)cc21` (some centres unmarked) is reported as 1.51 ± 0.113 (integrin αvβ3; dynamic optical imaging, Logan; female athymic nude mouse, MDA-MB-435 xenograft; dose not given, 60 min, unit not given; relative to: muscle).
